# Experimental data collected from several papers.
Structure (SMILES),refers to,host,route,dose,setting,measurement,value
CC(=O)c1c(C)c2cnc(Nc3ccc(C4CCN(CCS(C)(=O)=O)CC4)cn3)nc2n(C2CCCC2)c1=O,,HR+/HER2- advanced breast cancer patients,oral,300 mg,,patients with TEAE grade ≥3,100%
CCN(CCO)CCCC(C)Nc1ccnc2cc(Cl)ccc12 (centres unmarked),Hyperglycemia grade 1,newly diagnosed glioblastoma patients,oral,200 mg/dose,with radiotherapy and temozolomide,patients with adverse event,33%
N[C@@H]1c2ccccc2OC12CCN(c1cnc3c(N4CCCc5ncccc54)n[nH]c3n1)CC2,,advanced solid tumour patients,oral,20 mg once daily,,patients with grade ≥3 TEAE,66.7%
CO[C@H]1C[C@@H]2CC[C@@H](C)[C@@](O)(O2)C(=O)C(=O)N2CCCC[C@H]2C(=O)O[C@H]([C@H](C)C[C@@H]2CC[C@@H](OC(=O)NCCOCCOCCOCCOCCOCCOCCOCCOCCC(=O)N3CCc4cc(Cn5nc(-c6ccc7oc(N)nc7c6)c6c(N)ncnc65)ccc4C3)[C@H](OC)C2)C[C@@H](O)[C@H](C)/C=C(\C)[C@@H](O)[C@@H](OC)C(=O)[C@H](C)C[C@H](C)/C=C/C=C/C=C/1C,grade ≥3 treatment-related AE,patients with advanced solid tumours,intravenous,dose not given,"all patients, weekly",patients with AE,37%
CN1CC[C@@H](c2c(O)cc(O)c3c(=O)cc(-c4ccc(C(F)(F)F)cc4Cl)oc23)[C@@H]1CO,Nausea,B-cell malignancies or AML,oral,100 mg,continuous dosing,patients with adverse event,12.5%
C=CCNc1c(O)cc2c(O)c1C[C@@H](C)C[C@H](OC)[C@H](O)[C@@H](C)/C=C(\C)[C@H](OC(N)=O)[C@@H](OC)/C=C\C=C(/C)C(=O)N2,,"unresectable or metastatic STS, GIST, other",intravenous,225 mg/m^2,,patients with sinus bradycardia,33%
Nc1nc2cc(-c3ccc4ncc(C(=O)N5CCOCC5)n4c3)ccc2o1,Vomiting,advanced solid tumour patients,,dose not given,"all grades, all doses",patients with adverse event,51%
O=C1Nc2cc3[nH]nc(-c4ccncc4)c3cc2CN1Cc1ccccc1,dermatitis acneiform,patients with advanced solid tumours,intravenous,dose not given,,patients with TEAE,22%
